Results from different studies.
Numbered parts are unrelated; each lists some results of a single study. Values joined by “and” are separate records of one study, mostly repeats; a detail may differ.

Series 1 — observed: ligand displacement; technique: radioligand; concentration: 10 µM
Target: 5-hydroxytryptamine receptor 1A (HTR1A, Homo sapiens, UniProt P08908)
UniProt P08908, sequence (whole entry, looked up): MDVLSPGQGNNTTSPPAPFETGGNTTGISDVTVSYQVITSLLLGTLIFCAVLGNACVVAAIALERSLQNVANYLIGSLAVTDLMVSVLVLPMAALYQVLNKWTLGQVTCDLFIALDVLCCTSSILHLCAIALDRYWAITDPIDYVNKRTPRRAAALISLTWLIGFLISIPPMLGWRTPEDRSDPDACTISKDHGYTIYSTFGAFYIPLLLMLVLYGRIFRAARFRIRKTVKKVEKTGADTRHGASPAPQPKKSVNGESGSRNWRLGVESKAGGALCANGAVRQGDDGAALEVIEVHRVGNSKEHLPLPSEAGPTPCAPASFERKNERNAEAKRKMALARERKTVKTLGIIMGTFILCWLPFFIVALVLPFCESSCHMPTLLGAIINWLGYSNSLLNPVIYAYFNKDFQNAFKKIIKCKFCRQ
SMILES	inhibition [%]
Cn1cncc1[C@@](O)(COc1ccc(C#N)cc1-c1ccc(OC(F)(F)F)cc1)c1ccc(C#N)cc1	-6.52
C[C@@]1(Cc2ccc(C#N)cc2)C(=O)N(c2cc(Cl)cc(Cl)c2)c2ncc(C(=O)NC3(c4nc(C5CCC5)no4)CC3)n21	-16.6
CSc1cccnc1N1CCN(Cc2nc3ccccc3[nH]2)CC1	81.6
CC(C)(C)OC(=O)N1CCCC1CNC1CCC(c2cc(F)ccc2F)(S(=O)(=O)c2ccc(Cl)cc2)CC1 (stereo not shown)	66.3
Cn1nc(C(F)(F)F)cc1-c1cnc(N2CCc3cc(S(=O)(=O)Nc4c(F)cc(Cl)cc4F)cc(N4CCCC4=O)c32)nc1	-11.5
CN1CCN(c2cnc3c(C4CCN(C(=O)c5ccc(OC(F)(F)F)cc5N)CC4)ncnc3c2)CC1	7.38
CCOc1cc(N2C3COCC2CN(C(=O)[C@H]2C[C@H](O)CN2c2ccc(Cl)cc2)C3)ccc1Cl	-9.03
CCC(=O)N[C@@H]1CC[C@H](C(=O)N(C)c2ccc(-c3nc4ccccc4o3)cc2)C1	8.28
C[C@@H]1CN(c2cc(-c3n[nH]c4ccc(OC5(C)CC5)cc34)ncn2)C[C@H](C)O1	4.44
C[C@@H](c1cccc(C#N)c1)n1cc(Cl)cc(C(N)=O)c1=N	1.02
CCC(=NO)C(C)=Cc1ccc(F)c(C)c1	1.12
Cc1nc(C2CCN(C(=O)c3ccc(OC(F)(F)F)cc3N)CC2)c2ncc(N3CCN(C)CC3)cc2n1	-3.88
O=C1CCc2cc(Nc3cc(OC4CCOCC4)c([N+](=O)[O-])cc3Cl)ccc2N1	-4.09
Cc1cc(Nc2nccc(C)n2)cc(-c2cnc([C@@]3(O)CC[C@H](C(=O)O)C(C)(C)C3)s2)c1	-0.0778
COc1cc(-c2cn(C3CCc4c(F)cccc4N(CC(F)(F)F)C3=O)nn2)ccc1-n1cnc(C)c1 (stereo not shown)	19.4
COc1cc(-c2cn(C3CCc4ccccc4N(CC(F)(F)F)C3=O)nn2)ccc1-n1ccc(C)n1 (stereo not shown)	1.18
CO[C@H]1CC[C@H](CNc2ccc(S(=O)(=O)NC(=O)c3ccc(N4CCN(CC5=C(c6ccc(Cl)cc6)CC(C)(C)CC5)CC4)cc3Oc3cnc4[nH]ccc4c3)cc2[N+](=O)[O-])CC1	-7.27
CC(C)(O)c1cncc(-c2nc3ccc(F)cc3n2C2CC2)c1	1.22

Series 2 — host: human; medium: microsomes or S9; concentration: 2 µM; time: 0.5 h
SMILES	remaining compound
CCOc1ccc(OCC)c(NC(=O)c2cc3sc(Cl)cc3n2CC)c1	> 99%
Cc1ccc(CNS(=O)(=O)CC2=NC(=O)n3cccc3C2=O)cc1	2.46%
CC(CC(=O)c1cccs1)NC(=O)C(C)n1cncn1 (stereo not shown)	101%
Cc1cc(N2CCCC(N3CCN(C(=O)Nc4cc(C)on4)CC3)C2=O)n(C)n1 (stereo not shown)	> 100%
CON(C)C(=O)[C@H]1CCCN1C(=O)OC(C)(C)C	> 99%

Series 3 — cell line: mouse MPNST tumor cells; technique: high-content immunofluorescence imaging; measured: nuclear SOX9; concentration: 10 µM; time: 12 h; setting: mean of 2 replicates; baseline: DMSO control; reading: higher = more nuclear SOX9
SMILES	nuclear SOX9 intensity
CC(C)(C)c1cc(C(=O)C(C#N)=NNc2cccc(Cl)c2)no1	116 % of DMSO
Cc1cc(NCCO)nc(-c2ccc(Br)cc2)n1	97.5 % of DMSO
CC1(C)C(N)=Nc2cc(OCCCN3Cc4ccc(OCCc5cn(CC(=O)N6CCC(CCN7CCCC7)CC6)nn5)cc4C3)c(OCC3CC3)cc21	123 % of DMSO
CC(=O)[C@@]12O[C@](C)(c3ccccc3)O[C@@H]1C[C@H]1[C@@H]3CCC4=CC(=O)CC[C@]4(C)[C@H]3CC[C@@]12C	124 % of DMSO
CCN(CC)CC1CCCCN1CC(=O)N1c2ccccc2C(=O)Nc2cccnc21 (stereo not shown)	106 % of DMSO
CC(C)(C)OC(=O)CN(Cc1ccc(Cl)cc1)Cc1ccc([N+](=O)[O-])s1	129 % of DMSO

Series 4 — observed: cell-free assay; concentration: 0.5 µM
Target: NUAK family SNF1-like kinase 2 (NUAK2, Homo sapiens, UniProt Q9H093)
Residues (Q9H093 1-628): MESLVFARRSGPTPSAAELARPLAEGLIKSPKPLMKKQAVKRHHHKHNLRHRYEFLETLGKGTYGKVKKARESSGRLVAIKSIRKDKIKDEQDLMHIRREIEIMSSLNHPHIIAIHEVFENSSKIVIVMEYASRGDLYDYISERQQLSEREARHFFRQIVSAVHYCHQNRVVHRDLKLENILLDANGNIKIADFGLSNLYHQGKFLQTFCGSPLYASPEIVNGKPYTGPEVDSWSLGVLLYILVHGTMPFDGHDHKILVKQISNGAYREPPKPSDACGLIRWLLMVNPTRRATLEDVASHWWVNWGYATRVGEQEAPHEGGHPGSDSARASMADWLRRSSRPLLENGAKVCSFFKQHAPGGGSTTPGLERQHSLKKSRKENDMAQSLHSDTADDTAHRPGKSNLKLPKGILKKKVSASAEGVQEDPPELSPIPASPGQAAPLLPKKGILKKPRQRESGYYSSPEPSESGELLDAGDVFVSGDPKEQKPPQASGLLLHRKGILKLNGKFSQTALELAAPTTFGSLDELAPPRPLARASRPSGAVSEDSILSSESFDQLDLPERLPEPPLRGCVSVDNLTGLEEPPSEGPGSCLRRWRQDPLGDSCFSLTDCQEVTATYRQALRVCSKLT
Structure (SMILES)	remaining signal
COc1cc2ncnc(Nc3ccc(F)c(Cl)c3)c2cc1OCCCN1CCOCC1	96%
COc1cc(Nc2c(C#N)cnc3cc(OCCCN4CCN(C)CC4)c(OC)cc23)c(Cl)cc1Cl	59.5%
Clc1ccc(Nc2nnc(Cc3ccncc3)c3ccccc23)cc1	105%

Series 5 — observed: binding; mode: competitor; technique: NanoBRET; cells: HEK293
SMILES: CC(C)C(=O)N1CCN(c2nc(OC[C@@H]3CCCN3C)nc3c2CCN(c2cccc4cccc(Cl)c24)C3)C[C@@H]1CC#N
KRAS Q61H: GTPase KRas (KRAS, Homo sapiens, UniProt P01116, Q61H)
target	setting	normalized BRET
KRAS Q61H	412 nM	93.1% and 94.4% and 103%
GTPase KRas (KRAS, Homo sapiens, UniProt P01116, G13D)	15.2 nM	97.1% and 96.4% and 113%
GTPase KRas (KRAS, Homo sapiens, UniProt P01116, Q61L)	412 nM	96.8% and 102%
KRAS Q61H	45.7 nM	95.9% and 94.1% and 101%
GTPase KRas (KRAS, Homo sapiens, UniProt P01116, G12D)	3.7 µM	116% and 106% and 95%

A few entries again (series 5):
target	setting	normalized BRET
KRAS Q61H	412 nM	93.1% and 94.4% and 103%
GTPase KRas (KRAS, Homo sapiens, UniProt P01116, G13D)	15.2 nM	97.1% and 96.4% and 113%
GTPase KRas (KRAS, Homo sapiens, UniProt P01116, Q61L)	412 nM	96.8% and 102%
KRAS Q61H	45.7 nM	95.9% and 94.1% and 101%
GTPase KRas (KRAS, Homo sapiens, UniProt P01116, G12D)	3.7 µM	116% and 106% and 95%
